Measured values collected from several papers.
Numbered parts are unrelated; each lists some results of a single study.

Set 1
Target: RNA binding protein fox-1 homolog 2, RRM domain, GST-SBP tag (RBFOX2, Homo sapiens, UniProt O43251-10, residues 100-194)
Method: RNA Bind-n-Seq
Molecule type: RNA
Sample: in vitro
Tested at: 365 nM
Setting: natural RNA segment, single round, ends assumed
Baseline: no-protein control
Direction: higher = stronger binding
Measurement: RBNS enrichment (R)
Residues (chain): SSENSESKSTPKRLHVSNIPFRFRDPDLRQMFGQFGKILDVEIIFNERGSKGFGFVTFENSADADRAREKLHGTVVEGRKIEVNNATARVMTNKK
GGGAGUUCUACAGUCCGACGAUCAUCAGAAGCUUUUAUUUCUUCUUAUUUUAAUUGUAUCUUAGUUGACUGAAUUUUGGUGAAGUUUUUUUUUUUUUAUGCUAUAUUUCCUGUGUAAUAUUUUGUAAAUCCUUUGGAAUUCUCGGGUGCCAA: 2.23
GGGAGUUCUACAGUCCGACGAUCCAAUGGGGCUACUUUUCUCCUGAAUAGCUCCUCUGGGCUUGUUGCAGUUCUAGUUUUCCCAGUAGUUCCAUGGCAGGUUCAACCUCUCAGUGUCCUGAAAAAUGGAACCAUGGAAUUCUCGGGUGCCAA: 0.32
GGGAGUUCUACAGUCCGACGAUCUGGAAUUCCUGGGGGGGUCUUUAAUUCUGGCUCCUUCCUUCCUCAGAACAUCUCUAUUCUGCAAGACCCCUCUGCCAUGCCAGGGCACGCCCAUUCCAGCUGGAGUCGUGUGGAAUUCUCGGGUGCCAA: 2.53
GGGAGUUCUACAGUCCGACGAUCCAGAGGGUUCUGUUUUUCCCAUUCCCUUCUGGACUUUAAAUAAAUAUUUAAAACUGAGCAAUGGAAAGACGAGUCUGUGGUUUGAUGCUUCUUCACGGUGCUCAAAGGCAUGGAAUUCUCGGGUGCCAA: 0.511
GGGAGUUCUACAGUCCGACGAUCCUGUUUAUCUACUGCUUUGAGCCCUCCUAAGUUAACCUGUGCCUCAUUUGUAAAACCACCAGCAUCAGGAGUAAGGGGGAGGCCAGAGGGCUCAGAUGGACACAGAAUUCUGGAAUUCUCGGGUGCCAA: 0.735
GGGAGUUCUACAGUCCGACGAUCGGCCCUGCCCAUGCCUGGGCCAGAGUGGCGCUGGGGCCUCGGCUUCCCUUUGGCUCCUGGAAGGCAGGAGGGUCCCCUGCCCUGCCCCAGUCCUGCCCCAGGGAGGCAGGUGGAAUUCUCGGGUGCCAA: 0.421
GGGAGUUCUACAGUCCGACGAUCCUGCCCCUCGAGUCGAUGGUGUCCCGCAUCUACUCAUGUGAACUGGCCUUGGCGAGGGCUGGUCUGUGCAUAGAAGGGAUAGUGGCCACACUGCAGCUGAGGCCCCAGGUUGGAAUUCUCGGGUGCCAA: 0.586
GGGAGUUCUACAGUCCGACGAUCUGUAAUGCACUUUGGGAGGCCAAGGCGGGAGGAUUGCUUGAGCCCAGGAGUUCAAGACCAGCCUGGGCAACAUACCAAGACCCCCGUCUCUUUAAAAAUAUAUAUAUUUUUGGAAUUCUCGGGUGCCAA: 0.372
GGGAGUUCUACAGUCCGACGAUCACACAGAUUUGAGUCAGAACUGGAAAGUGUCCCCCACCCCCACCACCCUCGAGCGGGGUUCCCCUCAUUGUACAGAUGGGGCAGGACCCAGCACGCUGCUGGCAGAGAUGUGGAAUUCUCGGGUGCCAA: 0.367
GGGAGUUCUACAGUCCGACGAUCAGCUUGUACAUACUUUUUUAUGGAGCAUUACUUACGAUUUUUUAAGUAAAAUGUUUUGAAACCAAAACUCACUUGGAUAUUCAUUUAUUGAAGCACACGGGCAACCUUUCUGGAAUUCUCGGGUGCCAA: 0.922
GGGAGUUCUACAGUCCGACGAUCCAGUCAGAAAUGUUACUGGGAGGAGGAAAGGAAAAUCACUUUUUUUCCUCCAUGUGGAAAUGAGGAGAGAGGAAAGUGGAUUGCAAACCAAAAUGUGAGUCAGUGUGAUGUGGAAUUCUCGGGUGCCAA: 0.625
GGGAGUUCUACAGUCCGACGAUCCCCAGGAAAGGGCCAGCUUGGCGGGAAGGGGCUCUCCCUAGGGGUGCAGCUGGGAGGAGGUCCGAGUACCUCUUCAGUGGCUCUCAGGGGCCAUUUCUGUGGAAGGGGUAUGGAAUUCUCGGGUGCCAA: 0.9

Set 2
Target: Interferon regulatory factor 3, full length, phosphomimetic (IRF3, Homo sapiens, UniProt Q14653, residues 1-427, S386D/S396D/S398D/S402D/T404D/S405D)
Chain of UniProt Q14653 (whole entry, unmodified, looked up): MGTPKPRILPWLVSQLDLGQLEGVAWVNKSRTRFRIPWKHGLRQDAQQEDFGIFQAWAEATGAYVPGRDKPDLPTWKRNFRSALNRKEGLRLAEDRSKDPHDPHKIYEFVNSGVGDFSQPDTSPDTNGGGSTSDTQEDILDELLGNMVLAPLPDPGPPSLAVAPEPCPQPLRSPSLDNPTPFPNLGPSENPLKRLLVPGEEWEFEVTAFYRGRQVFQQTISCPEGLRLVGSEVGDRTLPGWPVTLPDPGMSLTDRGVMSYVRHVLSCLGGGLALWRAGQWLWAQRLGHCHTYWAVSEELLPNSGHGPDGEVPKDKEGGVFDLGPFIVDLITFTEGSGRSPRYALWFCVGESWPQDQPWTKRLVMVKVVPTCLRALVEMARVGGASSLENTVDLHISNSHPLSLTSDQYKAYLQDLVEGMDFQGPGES
Method: protein-binding microarray
Molecule type: double-stranded DNA, one strand shown
Sample: in vitro
Tested at: 2540 nM top
Setting: 60-bp whole probe
With: salmon DNA 0.4 mg/ml
Baseline: random background probes
Direction: higher = stronger binding
Measurement: fitted relative affinity
Shared flanks, not repeated: GCCTAGCAC … GTCTTGATTCGCTTGACGCTGCTG
TTAGGTATGGGTATCGGTTAGTGCTAG: 0.587 z-score
TTTTTTTCATATATATATGAGTGCTAG: 2.1 z-score
GACGGTTTCGGTATAGGGACGTGCTAG: 7.23 z-score
TCATATATCATTTAATTACTGTGCTAG: 1.03 z-score
GACTATATCAGTCTCGAGACGTGCTAG: 0.987 z-score
GACGATCTCAGTTTCTAGACGTGCTAG: 1.63 z-score
GACGGTATCCATATCCTGACGTGCTAG: 3.66 z-score
TGAGGTATCGGGACTGGGTTAGTGCTA: 0.735 z-score
GACGGTATCGACTATCGGGAAGTGCTA: 0.658 z-score
GACGGACTGGACTATCGGGCCGTGCTA: -0.596 z-score
TAGACCTAGAAAGAAACCACGTGCTAG: 0.0248 z-score
ATAGGTATCGGGTTTCGGTTAGTGCTA: 4.27 z-score
AGAATGATCTTCCTTCATGGCGTGCTA: 0.185 z-score
GAAGGACTGCTACTGCTGACGTGCTAG: -0.876 z-score
TTAGGGTTCGGTTTCGGTTAGTGCTAG: 6.48 z-score
TCAACCCTCCCTCTGTAACTGTGCTAG: -0.143 z-score
GACGGTCTCGGTATCGGGAAGTGCTAG: 1.75 z-score
TTAGATTTCGGGACTGAATTAGTGCTA: 1.82 z-score
TTAGGTATCGGAATCGGTTAGTGCTAG: 4.17 z-score
TTAGGTATCGACTTTGGGTTAGTGCTA: 0.53 z-score
TTAGGTATCGACTTTAGGTTAGTGCTA: 0.615 z-score
GACGAACTGGGGACTAGAGACGTGCTA: -0.411 z-score
GACGGTTTCGGTATCGGGGCGTGCTAG: 7.87 z-score
TTAGATCTGAGTCTCGATTAGTGCTAG: -0.00241 z-score
GACGGCTTCGACACTGGGGACGTGCTA: -0.92 z-score

Set 3
Target: Ras GTPase-activating protein-binding protein 1, RRM domain (G3BP1, Homo sapiens, UniProt Q13283)
Chain of UniProt Q13283 (whole entry, looked up): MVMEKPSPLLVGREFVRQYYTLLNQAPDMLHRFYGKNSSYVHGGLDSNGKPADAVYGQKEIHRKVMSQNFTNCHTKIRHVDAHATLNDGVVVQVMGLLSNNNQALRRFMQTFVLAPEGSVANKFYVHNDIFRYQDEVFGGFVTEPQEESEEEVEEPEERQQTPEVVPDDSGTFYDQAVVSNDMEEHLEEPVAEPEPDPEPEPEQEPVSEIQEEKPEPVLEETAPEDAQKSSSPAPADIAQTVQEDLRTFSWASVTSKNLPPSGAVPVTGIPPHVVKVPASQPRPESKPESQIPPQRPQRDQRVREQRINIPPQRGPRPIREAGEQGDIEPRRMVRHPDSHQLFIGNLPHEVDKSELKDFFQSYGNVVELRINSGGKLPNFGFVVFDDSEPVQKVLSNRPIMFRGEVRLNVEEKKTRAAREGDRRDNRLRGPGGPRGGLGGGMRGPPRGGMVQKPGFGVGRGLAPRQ
Method: RNA Bind-n-Seq
Molecule type: RNA
Sample: in vitro
Tested at: 1 µM
Setting: whole 134-nt RNA, ends assumed
With: 150 mM KCl
Baseline: input library
Direction: higher = stronger binding
Measurement: log2 enrichment
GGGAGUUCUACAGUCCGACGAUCUGGGAGGUGGAUUUUGCUUAUUUUUUUAGCUCAUUUCCAGGGGUGGGAAUUUUUUUUUAAUAUGUGUCAUGAAUAAAGUUGUUUUUGAAAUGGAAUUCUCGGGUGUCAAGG: 1.89
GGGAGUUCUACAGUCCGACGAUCACAGGAAGUAAAAACAAAUGGAAAUGCUUCGGAUAGUGGCAGGGGUGGGGGUUGCUAAGGAAAGGGUGGGAUGGGAGUGGGUAAAGAGUUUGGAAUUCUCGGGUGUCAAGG: 0.781
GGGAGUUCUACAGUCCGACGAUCCCUCAAGUCCUGUGCUACACAUCGUAUGUACCGAAUCGGGAGGGAGGGGAGGAAAGUAUUAUGUUACGCCGUUCGGAUCUGCACUUCCAGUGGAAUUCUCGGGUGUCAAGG: -0.0616
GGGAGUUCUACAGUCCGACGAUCGUCCUGUGCUACACAUCGUAUGUACCGAAUCGGGAAAAAGGGUUUGGGAAAAAAAGGGAAAGUAUUAUGUUACGCCGUUCGGAUCUGCACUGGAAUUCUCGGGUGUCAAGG: -0.105
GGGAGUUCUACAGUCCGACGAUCUCCUGUGCUACACAUCGUAUGUACCGAAUCGGGGCCCCCGGCCCCCGGGGCCCCCGGGGAAAGUAUUAUGUUACGCCGUUCGGAUCUGCAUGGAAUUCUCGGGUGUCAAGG: -0.772
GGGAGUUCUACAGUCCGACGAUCCAAGUCCUGUGCUACACAUCGUAUGUACCGAAUCGGGUUUGGGUUUGGGGUUUGGGAAAGUAUUAUGUUACGCCGUUCGGAUCUGCACUUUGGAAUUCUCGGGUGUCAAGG: 0.713
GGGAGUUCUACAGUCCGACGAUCCACAGACAACACGCUCCCACACAGACACAGAGGGAAGGGGUUGGGAUGGGGACAGGGUGCACAGCAGGGCGGGGUAGGACCCCAGCCCCUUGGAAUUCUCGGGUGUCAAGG: -0.0602
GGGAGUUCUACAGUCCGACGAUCUGAAAUGUUUUUUUCUCUGUCUUCUUUCAGGUCUUUGUUGAGUAUGCAAAUGCUGGUGAUUCCAAAGCUGCGCAGAAAUUACUGACUGGAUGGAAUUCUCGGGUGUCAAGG: -0.476
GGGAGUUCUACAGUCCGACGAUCGUCCUGUGCUACACAUCGUAUGUACCGAAUCGGGGAAAAAGGGAAAAAGGAAAAAGGGGAAAGUAUUAUGUUACGCCGUUCGGAUCUGCAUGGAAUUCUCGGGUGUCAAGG: 0.0911
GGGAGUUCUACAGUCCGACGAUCCCUGUGCUACACAUCGUAUGUACCGAAUCGGGGCCCCCCGGGGCCCCCCGGCCCCCCGGGGAAAGUAUUAUGUUACGCCGUUCGGAUCUGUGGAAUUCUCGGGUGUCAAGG: -0.646
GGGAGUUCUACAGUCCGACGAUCUGCAGGGUCUGGGUAGCAGCUGGGCUUCCAGCUUUCUCCUUGCACCUGACUUGGGCUUUUUUCUCCUCACAGGAUGGGCCUUGACGGCAUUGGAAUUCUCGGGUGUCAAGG: -0.107
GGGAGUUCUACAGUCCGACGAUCCCUCAAGUCCUGUGCUACACAUCGUAUGUACCGAAUCGGGAAGGGAAGGAAGGAAAGUAUUAUGUUACGCCGUUCGGAUCUGCACUUCCAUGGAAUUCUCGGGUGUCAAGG: -0.262
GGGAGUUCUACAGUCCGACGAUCACCAUGCAGGUGGGCAUCUAAAGGAAGUGGGGCAAGGGGGGGAUAGGGAGGGGGGUAACACUUUGGGAACAGGUGGUCCCAGGUCGUUUCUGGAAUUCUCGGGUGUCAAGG: -0.464
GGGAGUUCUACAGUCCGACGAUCCAAGUCCUGUGCUACACAUCGUAUGUACCGAAUCGGGCCCGGCCCGGGCCCGGGGAAAGUAUUAUGUUACGCCGUUCGGAUCUGCACUUCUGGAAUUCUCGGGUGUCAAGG: -0.466

Set 4
Target: Transcriptional repressor CTCF (CTCF, Homo sapiens, UniProt P49711, residues 1-727, full length assumed)
Chain of UniProt P49711 (whole entry, looked up): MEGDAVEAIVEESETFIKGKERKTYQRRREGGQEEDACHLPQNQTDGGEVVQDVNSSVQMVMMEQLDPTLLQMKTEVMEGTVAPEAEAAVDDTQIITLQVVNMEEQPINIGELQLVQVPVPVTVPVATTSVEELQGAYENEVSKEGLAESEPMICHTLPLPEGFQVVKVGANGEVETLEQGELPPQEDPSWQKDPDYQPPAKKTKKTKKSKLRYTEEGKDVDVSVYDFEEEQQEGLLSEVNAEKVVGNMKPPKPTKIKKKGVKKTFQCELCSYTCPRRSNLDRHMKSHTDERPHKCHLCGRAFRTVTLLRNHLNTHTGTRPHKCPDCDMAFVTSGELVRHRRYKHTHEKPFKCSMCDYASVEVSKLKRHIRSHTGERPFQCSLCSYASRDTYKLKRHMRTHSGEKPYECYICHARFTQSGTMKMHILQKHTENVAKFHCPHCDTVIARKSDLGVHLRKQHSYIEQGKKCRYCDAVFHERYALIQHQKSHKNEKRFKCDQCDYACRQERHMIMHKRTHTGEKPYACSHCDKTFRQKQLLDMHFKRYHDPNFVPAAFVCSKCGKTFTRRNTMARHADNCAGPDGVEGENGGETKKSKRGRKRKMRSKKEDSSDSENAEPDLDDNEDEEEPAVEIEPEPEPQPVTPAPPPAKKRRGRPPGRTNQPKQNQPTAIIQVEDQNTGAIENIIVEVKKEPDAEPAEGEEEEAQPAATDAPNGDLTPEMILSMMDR
Method: protein-binding microarray
Molecule type: double-stranded DNA, one strand shown
Sample: in vitro
Tested at: not given
Setting: k-mer, scored over probes, only values ≥0.25
Direction: higher = stronger binding
Measurement: E-score
TCACAAAA: 0.267
ATCAATTG: 0.277
TACAAATA: 0.357
GGCGCAAC: 0.286
ATAATGAA: 0.284
GTGGCCAC: 0.314
ATAGATTA: 0.36
ACCACACA: 0.278
TATACTCA: 0.332
AAAGCGCT: 0.276
AATTATAT: 0.251
ATTGTAGG: 0.257
AAATAGAT: 0.254
GGTAACAA: 0.275
AGATATAT: 0.282
TAATTAAA: 0.299
AGTATCTA: 0.284
CGCGCATA: 0.326
AATAATAC: 0.305
GGATTGTA: 0.266
TAATATAA: 0.375
AATATACG: 0.283
ATTTTACA: 0.279
GAATAACA: 0.264
TATTTAAA: 0.275

Some of these lines once more (set 4):
TAATTAAA: 0.299
ACCACACA: 0.278
AATAATAC: 0.305
ATTTTACA: 0.279
AGATATAT: 0.282
TCACAAAA: 0.267
AATATACG: 0.283
TATACTCA: 0.332
AAAGCGCT: 0.276
AATTATAT: 0.251
TATTTAAA: 0.275
ATAATGAA: 0.284
TACAAATA: 0.357
